Measurements of several laboratories.
Organism: Enterococcus faecium

SMILES | assay | test system | setting | MIC
CCCCCCCCCCCCCC(=O)N[C@@H]1CCNC(=O)[C@H](CC(=O)O)NC(=O)[C@H](C(C)C)NC(=O)[C@@H](Cc2ccc(O)cc2)NC(=O)[C@H](CCN)NC(=O)[C@H](CC(C)C)NC(=O)[C@@H](Cc2ccccc2)NC(=O)[C@H](CCN)NC(=O)[C@H](CC(C)C)NC(=O)[C@H](CCN)NC(=O)[C@H]([C@@H](C)O)NC1=O | broth microdilution | BNCC 186301 |  | 4 µg/mL
CNCCNC(=O)[C@@H]1NC(=O)[C@@H]2Cc3ccc(cc3)Oc3cc4cc(c3O)-c3ccc5c(c[nH]c5c3)C[C@@H](NC(=O)C(N)c3ccc(O)cc3)C(=O)N[C@H](c3ccc(O)cc3)C(=O)N[C@H]4C(=O)N[C@@H](C(=O)N2C)c2ccc(cc2)Oc2cc1ccc2O (stereo partly shown) |  | brain heart infusion medium |  | 1 to 2 µg/mL
CNC(CC(C)C)C(=O)NC1C(=O)NC(CC(N)=O)C(=O)NC2C(=O)NC3C(=O)NC(C(=O)NC(C(=O)O)c4cc(O)cc(O)c4-c4cc3ccc4O)C(O)c3ccc(c(Cl)c3)Oc3cc2cc(c3OC2OC(CO)C(O)C(O)C2OC2CC(C)(NCc3ccc(-c4ccc(Cl)cc4)cc3)C(O)C(C)O2)Oc2ccc(cc2Cl)C1O (stereo not shown) |  | ATCC BAA-2317 VanA | −LTA | 2.5 µg/mL
O=C(NC12CC3CC(CC(C3)C1)C2)c1cc2cc(Cl)ccc2[nH]1 | microbial growth, broth dilution | X7501 |  | > 64 µM
CN1C(=O)[C@@H]2NC(=O)[C@@H]3NC(=O)[C@@H](c4ccc(O)cc4)NC(=O)[C@H](NC(=O)C(NCc4cc(Cl)cc(Cl)c4Cl)c4ccc(O)cc4)Cc4c[nH]c5cc(ccc45)-c4cc3cc(c4O)Oc3ccc(cc3)C[C@H]1C(=O)N[C@@H](C(=O)O)c1ccc(O)c(c1)Oc1ccc2cc1 (stereo partly shown) |  | brain heart infusion medium |  | 16 µg/mL
CCN(CC)CCCN1/C(=C/c2cc(C)[n+](C)c3ccccc23)Sc2ccccc21 | microbial growth, broth dilution | ATCC700221 |  | 16 µg/mL
CCCCCCCCCCCCC[C@@H](O)Cc1cc(O)cc(O)c1 | microbial growth, broth dilution |  | drug-resistant strain | 16 µg/mL
COc1ccc(CCNc2cc(-c3ccccc3)nc3ncnn23)cc1 | microbial growth, broth dilution | X7501 |  | 64 µM
CN1C(=O)[C@@H]2NC(=O)[C@@H]3NC(=O)[C@@H](c4ccc(O)cc4)NC(=O)[C@H](NC(=O)C(NCc4cccc(-c5ccc(F)cc5)c4)c4ccc(O)cc4)Cc4c[nH]c5cc(ccc45)-c4cc3cc(c4O)Oc3ccc(cc3)C[C@H]1C(=O)N[C@@H](C(=O)O)c1ccc(O)c(c1)Oc1ccc2cc1 (stereo partly shown) |  | brain heart infusion medium |  | 16 µg/mL
CC1=CC2(C)C(=C(C)C3C4CC(C)CC(C)C4C4Oc5ccc(cc5)CC5(O)NC(=O)C(=C(O)C2C43)C5Nc2ncnc3c2ncn3C2OC(CO)C(O)C2O)C1C (stereo not shown) | microbial growth, broth dilution | ATCC700221 | drug-resistant strain | 6.3 µM

Repeated from above:
SMILES | assay | test system | setting | MIC
O=C(NC12CC3CC(CC(C3)C1)C2)c1cc2cc(Cl)ccc2[nH]1 | microbial growth, broth dilution | X7501 |  | > 64 µM
